Published values gathered from unrelated publications.
Parts stem from different laboratories: compare values within a part only.

Series 1
Target: Cyclic AMP-dependent transcription factor ATF-1, full length (ATF1, Homo sapiens, UniProt P18846, residues 1-271)
Method: protein-binding microarray
Form: hairpin DNA
Sample: in vitro
Concentration: not given
Setting: whole hairpin DNA, median over replicate spots
Reference: not given
Reading: higher = stronger binding
Residues (chain): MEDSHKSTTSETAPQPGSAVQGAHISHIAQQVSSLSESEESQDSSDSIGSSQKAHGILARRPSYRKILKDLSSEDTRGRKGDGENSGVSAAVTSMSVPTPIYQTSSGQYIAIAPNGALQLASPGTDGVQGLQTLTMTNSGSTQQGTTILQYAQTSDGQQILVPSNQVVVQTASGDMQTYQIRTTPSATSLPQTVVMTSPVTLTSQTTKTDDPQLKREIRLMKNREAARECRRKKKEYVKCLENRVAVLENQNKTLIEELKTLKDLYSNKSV
Sequence	median fluorescence [a.u.]
GAGGCCGACGACGTCGGGCCTCCTGGCCCGACGTCGTCGGCCTCACACTC (5mC at 9 15 29 35)	3710
GAGGCCGACGACGTCGCGCCTCCTGGCGCGACGTCGTCGGCCTCACACTC (5mC at 9 15 29 35)	4710
GAGGCCGACGACGGCGTGCCTCCTGGCACGCCGTCGTCGGCCTCACACTC (5mC at 9 15 29 31 35)	3850
GAGGCCGGATGCGGTCAGCCTCCTGGCTGACCGCATCCGGCCTCACACTC (5mC at 12 32)	3440
GAGGCCGGATGCGGTCAGCCTCCTGGCTGACCGCATCCGGCCTCACACTC	3490
GAGGCCGGCTGACGTCAGCCTCCTGGCTGACGTCAGCCGGCCTCACACTC (5mC at 37)	10500
GAGGCCGGCTGCCGTCAGCCTCCTGGCTGACGGCAGCCGGCCTCACACTC (5mC at 12)	3590
GAGGCCGACGACCGCGTGCCTCCTGGCACGCGGTCGTCGGCCTCACACTC (5mC at 9 15 29 31 35)	3660
GAGGCCCGCTGACGTCAGCCTCCTGGCTGACGTCAGCGGGCCTCACACTC	13000
GAGGCCGTCGACGTCGTGCCTCCTGGCACGACGTCGACGGCCTCACACTC (5mC at 9 15 29 35)	4160
GAGGCCGGATGACGTCGGCCTCCTGGCCGACGTCATCCGGCCTCACACTC	9980
GAGGCCGGATGACCGCAGCCTCCTGGCTGCGGTCATCCGGCCTCACACTC (5mC at 14)	3470
GAGGCCGACAACGTCGTGCCTCCTGGCACGACGTTGTCGGCCTCACACTC (5mC at 9 15 29)	3920
GAGGCCGGCTGACGTCCGCCTCCTGGCGGACGTCAGCCGGCCTCACACTC	5150
GAGGCCGGCTGACGTCAGCCTCCTGGCTGACGTCAGCCGGCCTCACACTC (5mC at 13)	4890
GAGGCCGCGTGACGTCAGCCTCCTGGCTGACGTCACGCGGCCTCACACTC (5mC at 8)	16700
GAGGCCGGCTGACGTCGGCCTCCTGGCCGACGTCAGCCGGCCTCACACTC (5mC at 28)	7610
GAGGCCGACGACGTCATGCCTCCTGGCATGACGTCGTCGGCCTCACACTC (5mC at 9 15 35)	4300
GAGGCCGAGGACGTCGTGCCTCCTGGCACGACGTCCTCGGCCTCACACTC (5mC at 15 29 35)	3590

Series 2
Target: RNA binding protein fox-1 homolog 2, RRM domain, GST-SBP tag (RBFOX2, Homo sapiens, UniProt O43251-10, residues 100-194)
Method: RNA Bind-n-Seq
Form: RNA
Sample: in vitro
Concentration: 365 nM
Setting: natural RNA segment, single round, ends assumed
Reference: no-protein control
Reading: higher = stronger binding
Shared flanks, not repeated: GGGAGUUCUACAGUCCGACGAUC … UGGAAUUCUCGGGUGCCAA
Construct (chain): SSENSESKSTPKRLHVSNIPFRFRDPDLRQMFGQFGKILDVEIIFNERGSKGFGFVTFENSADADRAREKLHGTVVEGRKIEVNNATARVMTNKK
Sequence	RBNS enrichment (R)
AGCGUCAGGAUGAGGAAAUGACAGGAGGAAGACGUGGGUUUGGGUUAGUGGCUGCUGGCGUUUUGGCCCUUGGUGUUUCUGGAGCCUCCAGGGAUCUAGGGGAGCCUGGG	0.745
AACAGAAUAUGCAUUAUUAAAGCAAAAAUAAAUAAAAGUAAAAUGCAAAUGAAAACAAGGGAGGGAAAGUUGUAUUAUUUCCUGCACUGGGUUACCCGUGUGUGUUAUCG	0.556
CAGCGUGUGAUACAGAUACCACUGCUUUCAGGCUCUUGUCCUUUAAGUCCUGAUCAGCUGUCAGAUUGUUCUGAGAGUCUCAUCGCUGUCCUCGAGUGUCCAGUCUCAGG	0.31
UUCCCUCUUCAGGCCCUGGUGGCGGCGGCGUGUACACCUUCCCGAGGAAACUCCGCUGCCGACCCUGCCUGAGCGCGGGAGCCUGAGGACCGGGUGGAGGCGGUGGGGAC	0.381
UUUGAGCAGGUAUCAAAUGAUUUAGGAUCCUUAAAAUUACAUUCUAAUAAUUAAGUUAUGUGGAAAAAGUAAGGCUGGGGAAGUCGUGAUUAAUAGUUUUCAAAGGGCCA	0.357
AGGUUUUUAGGGGUCAAGGAGGCCUCUAGUGACACAGGAACAGCUGUGGCCCUUUUUUGAAGCUACUCUGACAUGUCCCAGAGCCCAAGGUUCUCAUUUCUCAGGUGGUG	0.297
GCAACAGUCUUGCUGACAAGCUAGAGCUUGGACUGAAAGAGAAGAGCUGGAUUAUAUAUUUCCCAGACUUCAAACCCUAGCAGAAGCUAAGGCUUGUGAUUUGACCUGAG	0.418
GCGCGCGUGUGUGUGUGCUUCACCUUGAUUGAGUGGCAUUGGCUCACAUGACCCAGGAGAUUCCCAGACUCUGUUAGUAGUGUCUAGGAACUUGUGUUCCAGCUGAGGAG	0.641
UUUUCCAAAAUGAAUUGGGAAAAAAAAAUCGUAUAGCAGUCUUAAAGCUUAGUAAUGGAACUUGGCUGUGGCCCAGAGCUUUCUCCUUAUAGAGAAUUUGAUCUGCUCCG	0.398
GAGCCUGCAUUUCCCUGCUAUUGUAGGGAUUCCUACUGGGAGACCUCGAGGGGUAGCUGUCUCCUGCAGAGACAAGAGCCGAAGCACUGGUCUCAUUGAAGACGACACGU	0.341
GGAAUAUUGGGGAAUAGAAGGGAUUGAGGAAACAUUAAUAAUAGUUAUUCAAAAGACCCAAAUGCUUAUACUUCUCUCUCCCUUCUUCUCUCUCUGACACACACACACAC	0.815
CCCCACCCUGCCUCUUGUCCUGUUGCUAUGUCCUGGUCCUUCUUCCCGCUCUGGGCUUCUCUCAACCCCAACCCUGGGUUUUCUCCUAGACUCUUGGGCUGCGAUGCAUC	1.4

Series 3
Target: Sal-like protein 4, full length isoform A (SALL4, Homo sapiens, UniProt Q9UJQ4, residues 1-1053)
Sequence of UniProt Q9UJQ4 (whole entry, looked up): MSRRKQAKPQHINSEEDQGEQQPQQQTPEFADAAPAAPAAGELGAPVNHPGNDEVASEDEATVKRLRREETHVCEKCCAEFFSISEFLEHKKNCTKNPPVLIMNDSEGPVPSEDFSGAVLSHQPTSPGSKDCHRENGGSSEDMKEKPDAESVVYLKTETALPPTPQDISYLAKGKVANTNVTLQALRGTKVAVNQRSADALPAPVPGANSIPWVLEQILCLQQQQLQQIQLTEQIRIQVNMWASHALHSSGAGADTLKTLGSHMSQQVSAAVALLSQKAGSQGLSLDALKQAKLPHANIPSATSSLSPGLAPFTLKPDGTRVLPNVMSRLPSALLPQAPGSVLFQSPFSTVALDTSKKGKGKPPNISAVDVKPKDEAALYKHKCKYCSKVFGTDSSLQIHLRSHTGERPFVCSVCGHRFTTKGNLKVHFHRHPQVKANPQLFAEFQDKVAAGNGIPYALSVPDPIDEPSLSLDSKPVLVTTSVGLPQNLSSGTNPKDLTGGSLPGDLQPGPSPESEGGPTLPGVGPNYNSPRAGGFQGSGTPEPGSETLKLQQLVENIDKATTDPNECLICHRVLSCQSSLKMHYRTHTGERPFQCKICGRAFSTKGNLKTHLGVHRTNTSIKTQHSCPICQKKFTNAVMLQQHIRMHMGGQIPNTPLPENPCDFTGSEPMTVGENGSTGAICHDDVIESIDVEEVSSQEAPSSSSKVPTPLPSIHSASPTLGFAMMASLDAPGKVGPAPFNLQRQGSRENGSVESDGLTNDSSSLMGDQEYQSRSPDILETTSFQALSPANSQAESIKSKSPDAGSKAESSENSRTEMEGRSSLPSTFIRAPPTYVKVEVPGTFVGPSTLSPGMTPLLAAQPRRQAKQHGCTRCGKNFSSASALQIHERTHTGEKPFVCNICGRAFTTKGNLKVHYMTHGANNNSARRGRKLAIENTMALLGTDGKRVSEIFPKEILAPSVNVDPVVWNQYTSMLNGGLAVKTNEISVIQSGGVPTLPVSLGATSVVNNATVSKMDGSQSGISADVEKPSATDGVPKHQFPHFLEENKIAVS
Method: universal PBM
Form: double-stranded DNA, one strand shown
Sample: in vitro
Concentration: 600 nM
Setting: 8-mer, flanks averaged, mean of replicates
Reading: higher = stronger binding
Sequence	E-score
AAGACCAC	-0.137
GGATTTGA	0.0791
CAGCTGCC	-0.165
CAAGATAG	-0.0131
AGGGGTCC	-0.39
CCGTCCGC	-0.31
AATGGAGG	-0.0838
ATTGATGA	0.267
CGGTATCC	-0.137
TCTCACCA	0.0682
ATTTAATC	0.288
AAGTCAAC	0.123
AGCCATAA	0.22
GCAGGCTA	-0.282
ATAGCCTA	0.151
GCAAGAGA	-0.0371
CGGCCCCG	-0.419

Series 4
Target: Histone acetyltransferase KAT6A, winged helix 1, GST fusion (KAT6A, Homo sapiens, UniProt Q92794, residues 1-85)
Method: protein binding microarray
Form: double-stranded DNA, one strand shown
Sample: in vitro
Concentration: not given
Setting: 8-mer, flanks averaged, mean of 2 arrays, mostly near background
Reference: not given
Reading: higher = stronger binding
Residues (chain): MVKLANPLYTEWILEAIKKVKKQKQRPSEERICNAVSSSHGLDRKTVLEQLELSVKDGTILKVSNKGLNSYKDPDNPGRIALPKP
Sequence	E-score
AAGAAGTG	-0.117
AACCGAAT	0.0314
GGCCACCA	-0.0222
AGGACGAG	-0.234
AATTGACA	0.0102
CGACCCCA	-0.131
ATTTATAA	-0.147
AACATGTG	0.00134
GACTACTC	0.136
ACCCTCGG	0.0244
AGTAAGAA	-0.0519
CCTGCAAC	-0.152
AGAAGTGA	-0.137
ATCTCTAG	-0.197
AGTCGATG	-0.226
ATCCGTTG	0.0603
CTCGGAGC	0.0438
GAACGGAC	0.199
ACGAATTA	-0.165
TACGCATA	0.207

Series 5
Target: Interferon regulatory factor 5, full length, phosphomimetic (IRF5, Homo sapiens, UniProt Q13568-2, residues 1-514, K96S/S451D/S453D/S456D/S462D)
Method: protein-binding microarray
Form: double-stranded DNA, one strand shown
Sample: in vitro
Concentration: 250 nM
Setting: 60-bp whole probe
With: salmon DNA 0.4 mg/ml
Reference: random background probes
Reading: higher = stronger binding
Shared flanks, not repeated: GCCTAGCAC … GTCTTGATTCGCTTGACGCTGCTG
Sequence	log fluorescence [z-score]
GAAGGACTGGGGTATCGGGACGTGCTA	0.0103
TTAGATATCGGGCTTCGATTAGTGCTA	1.33
GACGGACTGGGTATCAGGACGTGCTAG	-0.231
CCCTTTTAAGTTCTCTGAAGGTGCTAG	0.115
ACGAGTTTCTATTTTCTGAAGTGCTAG	4.62
TTAGATTACAGTCTCGATTAGTGCTAG	0.94
TTTATTTTTACATTATTACCGTGCTAG	1.41
TCATGTCTGGGATTTTGACTGTGCTAG	-0.284
GACGATTTCAGTTTCGAGTCGTGCTAG	7.92
GACGGTTTCCTTTGCCTGACGTGCTAG	0.821
TTAGGTATCGGTATTGGTTAGTGCTAG	7.16
TTAGGACTAGGTATCGGTTAGTGCTAG	4.53
TCAAATCCCCTTCTACTACTGTGCTAG	0.271
TCTGTTTCCTCTTTCTTTGCGTGCTAG	1.84
AGGACTCGAATCCTGCAGGGGTGCTAG	-0.535
GACGGTATCGGGTTTCAGGACGTGCTA	3
GACGATATCAGACTGGCGACGTGCTAG	0.238
TTTGGTTTCGGTTTCGGTTAGTGCTAG	12.3
GAGGGACTGGGTATCGGGACGTGCTAG	0.249
GACGGCTTCGACACTGGGGACGTGCTA	-0.186
TTAGGTTTCCTTTTCATTTAGTGCTAG	2.53
GACGGTATCGGTAACGGGACGTGCTAG	4.49
GACGAACTGGGGGATCGAGACGTGCTA	-0.00475
TTAGATATCGACTTTCGGTTAGTGCTA	10.1

For quick reference, copied from above (series 1):
Sequence	median fluorescence [a.u.]
GAGGCCGAGGACGTCGTGCCTCCTGGCACGACGTCCTCGGCCTCACACTC (5mC at 15 29 35)	3590
GAGGCCGGATGACCGCAGCCTCCTGGCTGCGGTCATCCGGCCTCACACTC (5mC at 14)	3470
GAGGCCGACAACGTCGTGCCTCCTGGCACGACGTTGTCGGCCTCACACTC (5mC at 9 15 29)	3920
GAGGCCGGCTGACGTCAGCCTCCTGGCTGACGTCAGCCGGCCTCACACTC (5mC at 37)	10500
GAGGCCGACGACGTCATGCCTCCTGGCATGACGTCGTCGGCCTCACACTC (5mC at 9 15 35)	4300
